Published values from different studies.
A part holds a random share of what one study measured. Changes are numbered by the printed parent chain.

Block 1
Target: Phosphate system positive regulatory protein PHO4, full length, GST-tagged (PHO4, Saccharomyces cerevisiae, UniProt P07270, residues 1-312)
Method: competition protein-binding microarray
Molecule type: double-stranded DNA, one strand shown
Matrix: in vitro
Concentration: 2 µM
Notes: whole 60-bp probe, lowest competitor level
Added: Cbf1 competitor, 0.05 µM
Reading: higher = stronger binding
All sequences stand within: … GTCTTGATTCGCTTGACGCTGCTG
Target sequence (chain): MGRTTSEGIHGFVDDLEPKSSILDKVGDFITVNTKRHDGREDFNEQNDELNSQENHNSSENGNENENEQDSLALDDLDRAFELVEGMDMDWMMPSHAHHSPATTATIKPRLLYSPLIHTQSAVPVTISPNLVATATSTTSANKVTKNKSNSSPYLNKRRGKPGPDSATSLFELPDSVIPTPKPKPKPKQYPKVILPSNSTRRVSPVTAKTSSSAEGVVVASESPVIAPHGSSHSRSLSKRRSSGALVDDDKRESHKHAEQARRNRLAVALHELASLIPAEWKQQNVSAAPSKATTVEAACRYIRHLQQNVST
Strand	fluorescence intensity [a.u.]
CGTTCCACGGAAAAACACGTGCTTTGCGGGTATCCG	19300
AAAGCGGTAATTTGTAGGGTGGGTGCAGATATCTAT	4650
ACAAAATTGCAGGGCAACGTGTATCATTCAGTAGAG	13400
TTGGTAGAATCTTTGCATGTGTGAGGTATGAATATT	8530
ATTCTCGTAATTATTCTCGTGATGGCGTTTGCAACC	5400
CGCCTTGTGCTACTGGACGTGTGTTTGGTTTTATGT	8770
CTTCTGTAAATTTTTCACGTGTTATGACGCGCCCCG	13700
CTTTCCCGATCTTGTGCCGTGGGTGTAGCACATTTG	6340
CTGCCGTTGCTTCAGCACATGTTCCAAAAGACCTTG	10700
CATACCCAACCTTGTAGAGTGGGTGAAGATATTTGT	3720
ACCCAGGGGCGCCCCCACGTGGGGTCTGGGAGCGCG	20000
GTCTTGTCTCATTGCTGTGTGGGTGTCCCCACTTCA	5560
CTTCTGTAAATTTGATGGGTGGGTGGACGCGCCCCG	4150
CTTCTGTAAATTTGGTAGGTGGGTGGACGCGCCCCG	4340
CATACCCAACCTTGACCCGTGGGTGAAGATATTTGT	10900
GGAAACAGCTACCCCGGCGTGCCGAGTGGCTCTCTG	6700
CTTTCCCGATCTTGTTTTGTGGGTGTAGCACATTTG	4630
TGCAGCGGGTGCGGCCACGTTTTAAAGTGATTCTGC	11800
CTTCTGTAAATTTGTGTCGTGGGTGGACGCGCCCCG	6150
AAGACCCCGGTAAAATTCGTGACGGATCATCGCCTA	3050
GTACTTTTATAAACACACGTGGAGGAACTTTGGTAT	18000
TGGTCTTTGAACAAGATCATGCCATTCTGGGCTGGC	3950
AGGCAGGCGAACATCAACGTGATGGTTACCAACAGC	10000
AAATTACTAAGTTGCGAGGTGGGTGACGCCGTATGA	4030
GCCCGACGATTTGCCCACATGTCAATCGGATTGGGC	10500

Block 2
Target: Histone acetyltransferase KAT6A, winged helix 1, GST fusion (KAT6A, Homo sapiens, UniProt Q92794, residues 1-85)
Method: protein binding microarray
Molecule type: double-stranded DNA, one strand shown
Matrix: in vitro
Concentration: not given
Notes: 8-mer, flanks averaged, mean of 2 arrays, mostly near background
Relative to: not given
Reading: higher = stronger binding
Target sequence (chain): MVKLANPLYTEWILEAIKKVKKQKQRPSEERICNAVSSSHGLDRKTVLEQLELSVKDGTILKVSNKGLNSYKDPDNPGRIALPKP
Strand	E-score
AACTGCCC	-0.0283
AGTAATTC	0.087
AGACCCTG	-0.347
GAATCACC	-0.278
GACACGGA	0.221
AGGCTACT	-0.235
ATTGCCAC	-0.174
CGTTGGAC	-0.0747
GCTCCTAC	-0.0706
TCACGGAA	0.249
GCAGACAA	-0.232
AAAGGTGG	-0.152
ATAGCTGG	-0.122
AGATAGAC	-0.181
GCCCACCC	0.149
TAGCGTGA	-0.00873
CATCGCAC	0.0365
AGCAATCA	-0.236
CCTGGTCG	-0.0174
GTAAGGTA	-0.129
GCTCATAC	-0.00349
CCCAACGA	-0.128
AACCGACG	0.318
ATGCCATG	-0.0327
GCAAGCGA	0.0992

Block 3
Target: CCNF, cyclin fold, Cln2 fusion (human)
Method: yeast growth competition, sequencing
Matrix: yeast
Notes: weak parent motif
Relative to: not given
Reading: higher = stronger binding
Starting sequence: CDAN1 docking peptide (human); RGARSQLFPPTEA
Change	normalised enrichment score
RGARSQLFPPTAA [E12A]	0.87
RGARSALFPPTEA [Q6A]	0.271
RGARSQLFAPTEA [P9A]	0.415
RGARSQLFPPAEA [T11A]	0.585
RGARSQLAPPTEA [F8A]	0.631
RGARAQLFPPTEA [S5A]	1.6

Block 4
Target: Ras GTPase-activating protein-binding protein 1, RRM domain (G3BP1, Homo sapiens, UniProt Q13283)
Sequence of UniProt Q13283 (whole entry, looked up): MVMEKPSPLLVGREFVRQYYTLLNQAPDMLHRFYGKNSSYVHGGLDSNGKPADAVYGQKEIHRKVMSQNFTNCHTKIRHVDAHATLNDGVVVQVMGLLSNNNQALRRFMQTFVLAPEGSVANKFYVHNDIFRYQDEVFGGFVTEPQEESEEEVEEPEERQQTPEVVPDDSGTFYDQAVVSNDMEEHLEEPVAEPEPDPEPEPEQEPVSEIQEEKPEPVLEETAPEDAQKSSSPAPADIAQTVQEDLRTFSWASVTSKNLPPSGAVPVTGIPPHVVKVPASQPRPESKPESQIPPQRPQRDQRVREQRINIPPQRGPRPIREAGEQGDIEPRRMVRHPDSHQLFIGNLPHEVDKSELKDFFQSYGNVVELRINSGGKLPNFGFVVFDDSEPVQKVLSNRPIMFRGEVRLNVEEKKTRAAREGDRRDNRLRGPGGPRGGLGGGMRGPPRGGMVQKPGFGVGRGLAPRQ
Method: RNA Bind-n-Seq
Molecule type: RNA
Matrix: in vitro
Concentration: 1 µM
Notes: whole 134-nt RNA, ends assumed
Added: 150 mM KCl
Relative to: input library
Reading: higher = stronger binding
All sequences stand within: GGGAGUUCUACAGUCCGACGAUC … UGGAAUUCUCGGGUGUCAAGG
Strand	log2 enrichment
AAGUCCUGUGCUACACAUCGUAUGUACCGAAUCGGAAAAGGGAAAAGGGAAAAGGGAAAGUAUUAUGUUACGCCGUUCGGAUCUGCACUU	-0.0471
UUGUGUUCGUGAAUUGUAACUCCAGAAGCAAUGCCUGUACAAGCUCCACAAUGGACGGAUUUCCUCUCCUGCCCAAUUUGCACUCAGACU	0.0326
UAACUUUAGAGGAGGAUCUGAUGGAUAUGGCAGUGGACGUGGAUUUGGGGAUGGCUAUAAUGGGUAUGGAGGAGGACCUGGAGGUGCCAA	-0.389
AAGUCCUGUGCUACACAUCGUAUGUACCGAAUCGGGGUUUUGGGUUUUGGUUUUGGGAAAGUAUUAUGUUACGCCGUUCGGAUCUGCACU	-0.309
CUCAAGUCCUGUGCUACACAUCGUAUGUACCGAAUCGGGUUGGUUGGGUUGGGAAAGUAUUAUGUUACGCCGUUCGGAUCUGCACUUCCA	0.0182
ACCAUGCAGGUGGGCAUCUUUGGGAAGUGGGGCAAGGGGGGGAUAGGGAGGGGGGUAACACUUUAGGAACAGGUGGUCCCAGGUCGUUUC	1.24
CCUGUGCUACACAUCGUAUGUACCGAAUCGGGAAAAAAGGGAAAAAAGGGGAAAAAAGGGGAAAGUAUUAUGUUACGCCGUUCGGAUCUG	0.116
UGCUGUUCAGGUGGUGGAGAAGAAGAUGGAACCCCAGGCUGCCUGGCUACAGAGCCUGGAGGGAUGCAUGUGGACAGCCAAGAAGAAGCU	-0.404
UCCUGUGCUACACAUCGUAUGUACCGAAUCGGGGAAAAAAGGAAAAAAGGGAAAAAAGGAAAGUAUUAUGUUACGCCGUUCGGAUCUGCA	0.0274
GCAGGAAGUAAAAACAAAUGGAAAUGCUUCGGAUAGUGGCAUGGGUGGGGGUUGCUAAGGAAAGGGUGGGAUGGGAGUGGGUAAAGAGUU	0.81
UAGCAAGCCAAAUUACAGCAGCAGAUGGACCUGCAGAAAAAUCACAUUUUCCGUCUGACUCAAGGACUGCAAGAAGCUCUAGAUCGGGCU	-0.174
CUCAAGUCCUGUGCUACACAUCGUAUGUACCGAAUCGGGGCCGGCCGGCCGGGGAAAGUAUUAUGUUACGCCGUUCGGAUCUGCACUUCC	-0.448
CCUGUGCUACACAUCGUAUGUACCGAAUCGGGGUUUUUUGGGGUUUUUUGGUUUUUUGGGAAAGUAUUAUGUUACGCCGUUCGGAUCUGC	-0.22
UAACUUUAGAGGAGGAUCUGAUGGAUAUGGCAGUGGACGUGGAUUUGGGGACGGCUAUAAUGGGUAUGGAGGAGGACCUGGAGGUGGCAA	-0.397

Block 5
Target: Interferon regulatory factor 7, full length, phosphomimetic (IRF7, Homo sapiens, UniProt Q92985, residues 1-503, S101K/S471D/S472D/S475D/S476D/S477D/S483D/S484D/S487D)
Method: protein-binding microarray
Molecule type: double-stranded DNA, one strand shown
Matrix: in vitro
Concentration: 250 nM
Notes: 60-bp whole probe
Added: salmon DNA 0.4 mg/ml
Relative to: random background probes
Reading: higher = stronger binding
All sequences stand within: GCCTAGCAC … GTCTTGATTCGCTTGACGCTGCTG
Residues (chain): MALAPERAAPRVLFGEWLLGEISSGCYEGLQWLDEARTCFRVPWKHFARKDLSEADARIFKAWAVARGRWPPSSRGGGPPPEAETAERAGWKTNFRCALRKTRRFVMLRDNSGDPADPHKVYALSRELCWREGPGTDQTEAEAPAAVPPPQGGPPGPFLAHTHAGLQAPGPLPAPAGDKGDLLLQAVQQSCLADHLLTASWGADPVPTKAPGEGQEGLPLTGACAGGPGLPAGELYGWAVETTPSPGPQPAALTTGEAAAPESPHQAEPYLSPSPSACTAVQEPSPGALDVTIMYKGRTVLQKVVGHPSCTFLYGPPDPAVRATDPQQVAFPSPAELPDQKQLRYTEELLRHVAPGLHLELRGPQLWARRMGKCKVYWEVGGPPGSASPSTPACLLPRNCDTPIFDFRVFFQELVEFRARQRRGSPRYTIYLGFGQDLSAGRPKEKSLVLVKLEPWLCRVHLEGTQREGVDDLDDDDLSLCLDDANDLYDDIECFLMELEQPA
Strand	log fluorescence [z-score]
GACGAACTGGGGTGTCGAGACGTGCTA	-0.633
TTAGATATCGGGTTTCGACTAGTGCTA	2.41
GACGATCTCAGACTCGAGACGTGCTAG	0.152
TTAGGACTGGACACTAGGTTAGTGCTA	-0.658
GATTTCTTCCCTGTGAAAACGTGCTAG	2.52
TTAGGTATCCTATTCCTTTAGTGCTAG	0.812
TACGGACTGCTTCTCCTGACGTGCTAG	-0.232
TAGTATTTTTTTCCAGAGGGGTGCTAG	0.403
TTAGCTTTCGGTATCGGTTAGTGCTAG	2.54
TCAGCTATTTTATATGCTACTGTGCTA	-0.245
TTAGGACTGCACACTGGGTTAGTGCTA	-0.388
GACGGTTTCGACTATCGGAACGTGCTA	7.16
GACGGGCTGCTACTGCTGACGTGCTAG	-0.817
GACGGTCTGCTTTTCCTGACGTGCTAG	0.00722
TTAGGTTTCCTATCCCTTTAGTGCTAG	1.85
TCAAGTTTTAATAACACACTGTGCTAG	0.104
TTAGATCTCAGTCTCTATTAGTGCTAG	0.278
TTAGGTTTCGACTTTTGGTTAGTGCTA	8.68
GCCGATTTCGGGTTTCGAGACGTGCTA	4.87
TTAGGTCTCCAACTGCTTTAGTGCTAG	-0.0818
TTAGGTCTGGGTATCGGTTAGTGCTAG	0.657
CACACTTTCCCCTTCCTAGTGTGCTAG	1.97
GACGGTCTCGGTTTCGGGATGTGCTAG	8.42
GACGCTATCGGGTTTCGAGACGTGCTA	2.5
CTCTGGGGGGTGGGATGAAGGTGCTAG	3.9

Excerpt of the above (block 1):
Strand	fluorescence intensity [a.u.]
CTGCCGTTGCTTCAGCACATGTTCCAAAAGACCTTG	10700
CATACCCAACCTTGTAGAGTGGGTGAAGATATTTGT	3720
ACCCAGGGGCGCCCCCACGTGGGGTCTGGGAGCGCG	20000
GTCTTGTCTCATTGCTGTGTGGGTGTCCCCACTTCA	5560
CTTCTGTAAATTTGATGGGTGGGTGGACGCGCCCCG	4150
CTTCTGTAAATTTGGTAGGTGGGTGGACGCGCCCCG	4340
CATACCCAACCTTGACCCGTGGGTGAAGATATTTGT	10900
GGAAACAGCTACCCCGGCGTGCCGAGTGGCTCTCTG	6700
CTTTCCCGATCTTGTTTTGTGGGTGTAGCACATTTG	4630
TGCAGCGGGTGCGGCCACGTTTTAAAGTGATTCTGC	11800
CTTCTGTAAATTTGTGTCGTGGGTGGACGCGCCCCG	6150
AAGACCCCGGTAAAATTCGTGACGGATCATCGCCTA	3050
GTACTTTTATAAACACACGTGGAGGAACTTTGGTAT	18000
